Assay results from different studies.
Compare with care: the assays were run in different laboratories. “And” joins repeats or separate records; there may be more than shown.
Cell line: MCF7

SMILES	assay	conditions	how to read	endpoint	result
CC(C)(C)C(=O)OCOP(=O)(OCOC(=O)C(C)(C)C)C1CCCN(O)C1=O (stereo not shown)				log GI50	-6.47 log M
O=C(Cc1ccc(Cl)cc1)N1CCN(CC(OCc2ccc3ccccc3c2)c2ccc(Cl)cc2Cl)CC1 (stereo not shown)	cell growth or viability, MTT	24 h		IC50	17.9 µM
CC1CCC2C(C)C(OC(=O)CCC(=O)N3CCN(CC(=O)Nc4ccc([N+](=O)[O-])c(C(F)(F)F)c4)CC3)OC3OC4(C)CCC1C32OO4 (stereo not shown)	cell growth or viability, CCK-8			IC50	> 50 µM
CC(C)Cc1ccc(C(C)C(=O)[O-])cc1.CC(C)Cc1ccc(C(C)C(=O)[O-])cc1.[Cu+2].c1ccncc1.c1ccncc1 (stereo not shown)	cell growth or viability, MTT	48 h		GI50	23 µM
Cc1ccc2c(Cl)cc(Cl)c([O-])c2n1.Cc1ccc2c(Cl)cc(Cl)c([O-])c2n1.[Co+2].c1cnc2c(c1)c1nccnc1c1cccnc12	cell growth or viability, MTT	48 h		IC50	5.16 µM
CC[C@H](C)[C@H](NC(=O)CNC(=O)[C@H](Cc1ccc(O)cc1)NC(=O)[C@H](CO)NC(=O)[C@H](Cc1ccc(O)cc1)NC(=O)[C@@H](NC(=O)[C@H](CC(=O)O)NC(=O)[C@H](CO)NC(=O)[C@H](CCC(N)=O)NC(=O)[C@H](Cc1ccccc1)NC(=O)[C@H](CO)NC(=O)[C@H](Cc1ccccc1)NC(=O)[C@@H]1CCCN1C(=O)[C@H](CC(N)=O)NC(=O)[C@H](CC(N)=O)NC(=O)[C@H](CC(=O)O)NC(=O)[C@H](CCC(N)=O)NC(=O)[C@@H]1CCCN1C(=O)[C@H](CCCNC(=N)N)NC(=O)[C@H](CCCNC(=N)N)NC(=O)[C@H](CCCNC(=N)N)NC(=O)[C@H](CCC(N)=O)NC(=O)[C@H](CCCNC(=N)N)NC(=O)[C@H](CCCNC(=N)N)NC(=O)[C@H](CCCCN)NC(=O)[C@H](CCCCN)NC(=O)[C@H](CCCNC(=N)N)NC(=O)CN)C(C)C)C(=O)N[C@H](C(=O)N[C@@H](CC(C)C)C(N)=O)C(C)C	immunoblot densitometry, item: phospho-MEK1/2 Ser217/221	5 µM, 48 h, unit not given	relative to: 0 µM	phospho-MEK1/2 level	0.972 and 0.914
CC[C@H](C)[C@@H]1NC(=O)[C@@H]2CCCN2C(=O)[C@H](C)NC(=O)[C@H](CC(C)C)NC(=O)[C@@H]2CCCN2C(=O)[C@H](C)NC(=O)[C@@H]2CSSC[C@H](NC(=O)[C@H](C)NC(=O)[C@H](C)NC(=O)[C@H](Cc3ccc(O)cc3)NC(=O)[C@@H]3CCCN3C(=O)CNC(=O)[C@H](Cc3c[nH]c4ccccc34)NC1=O)C(=O)N[C@@H](CC(C)C)C(=O)N[C@@H](CO)C(=O)N[C@@H](C)C(=O)N[C@H]1CSSC[C@H](NC(=O)[C@H](C(C)C)NC(=O)[C@@H]3CCCN3C(=O)CNC(=O)CNC(=O)CNC(=O)[C@H](C)NC(=O)[C@H](C)NC(=O)[C@H](CC(C)C)NC1=O)C(=O)N[C@@H](CC(C)C)C(=O)N[C@@H](C)C(=O)N[C@@H](C(C)C)C(=O)N2				IC50	> 128 µg/mL
C[C@H]1[C@H](OC(=O)CCC(=O)OCCC2CCN(CC(=O)Nc3ccc([N+](=O)[O-])c(C(F)(F)F)c3)CC2)O[C@@H]2O[C@@]3(C)CC[C@H]4[C@H](C)CC[C@@H]1[C@@]24OO3	cell growth or viability, CCK-8			IC50	> 50 µM
c1cnc2c(c1)c1nccnc1c1cccnc12	cell growth or viability, MTT	48 h		IC50	> 50 µM
O=C(N[C@H](Cc1ccccc1)C(=O)N[C@H](Cc1ccccc1)C(=O)N[C@@H](Cc1ccc(OP(=O)(O)O)cc1)C(=O)O)OCC1c2ccccc2-c2ccccc21	mitochondrial membrane potential, flow cytometry	10 µM, 48 h		high-TMRM cells	91.5%
CNC(=S)NCCCC[C@H](NC(=O)CCc1ccccc1)C(=O)N[C@@H](CCCNC(=N)N)C(=O)N[C@@H](CC1CCCCC1)C(=O)N[C@H](CCCCN)C(=O)N[C@@H](CC1CCCCC1)C(N)=O	cell growth or viability, MTT	72 h		EC50	58.3 µM
CC1CCC2C(C)C(CCCOC(=O)C(Cc3ccc(N(CCCl)CCCl)cc3)NC(=O)OC(C)(C)C)OC3OC4(C)CCC1C32OO4 (stereo not shown)	cell growth or viability, CCK-8			IC50	> 50 µM
O=C(Cc1ccc(Br)cc1)N1CCN(CC(OCc2ccc3ccccc3c2)c2ccc(Cl)cc2Cl)CC1 (stereo not shown)	cell growth or viability, MTT	24 h		IC50	18.6 µM

A few entries again:
SMILES	assay	conditions	how to read	endpoint	result
CC1CCC2C(C)C(OC(=O)CCC(=O)N3CCN(CC(=O)Nc4ccc([N+](=O)[O-])c(C(F)(F)F)c4)CC3)OC3OC4(C)CCC1C32OO4 (stereo not shown)	cell growth or viability, CCK-8			IC50	> 50 µM
O=C(Cc1ccc(Cl)cc1)N1CCN(CC(OCc2ccc3ccccc3c2)c2ccc(Cl)cc2Cl)CC1 (stereo not shown)	cell growth or viability, MTT	24 h		IC50	17.9 µM
